# Experimental data collected from several papers.
# Parts stem from different laboratories: compare values within a part only. Positions count from the first letter of the parent shown.
# Sequence of UniProt P42336 (whole entry, unmodified, looked up): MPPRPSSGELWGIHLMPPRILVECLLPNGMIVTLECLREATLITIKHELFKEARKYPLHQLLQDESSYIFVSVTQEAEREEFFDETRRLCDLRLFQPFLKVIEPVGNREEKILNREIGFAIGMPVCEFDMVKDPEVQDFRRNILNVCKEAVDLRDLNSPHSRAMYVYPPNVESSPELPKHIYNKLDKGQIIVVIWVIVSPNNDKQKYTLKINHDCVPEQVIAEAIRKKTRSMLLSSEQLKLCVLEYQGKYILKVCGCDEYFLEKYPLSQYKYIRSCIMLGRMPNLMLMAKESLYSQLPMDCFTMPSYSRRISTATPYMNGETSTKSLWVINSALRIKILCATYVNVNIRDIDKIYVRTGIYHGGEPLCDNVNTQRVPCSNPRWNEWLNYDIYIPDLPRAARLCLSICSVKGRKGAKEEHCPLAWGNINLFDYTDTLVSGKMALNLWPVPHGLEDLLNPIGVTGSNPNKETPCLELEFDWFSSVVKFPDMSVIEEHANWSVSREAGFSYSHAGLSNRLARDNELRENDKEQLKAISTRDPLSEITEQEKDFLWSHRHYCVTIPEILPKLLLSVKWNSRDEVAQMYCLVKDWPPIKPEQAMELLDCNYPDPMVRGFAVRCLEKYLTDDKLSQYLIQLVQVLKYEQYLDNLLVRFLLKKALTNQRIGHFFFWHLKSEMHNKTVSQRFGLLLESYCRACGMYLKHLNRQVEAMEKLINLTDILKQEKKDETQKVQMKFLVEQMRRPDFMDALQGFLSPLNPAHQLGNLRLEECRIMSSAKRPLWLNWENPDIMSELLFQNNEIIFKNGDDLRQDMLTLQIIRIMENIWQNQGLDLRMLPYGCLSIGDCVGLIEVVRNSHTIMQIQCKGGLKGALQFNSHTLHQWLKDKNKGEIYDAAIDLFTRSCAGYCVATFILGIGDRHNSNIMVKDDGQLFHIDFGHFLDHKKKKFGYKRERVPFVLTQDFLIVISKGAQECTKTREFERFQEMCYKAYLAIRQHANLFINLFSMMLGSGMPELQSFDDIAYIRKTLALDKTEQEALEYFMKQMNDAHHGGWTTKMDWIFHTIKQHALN
# Sequence of UniProt P07949 (whole entry, unmodified, looked up): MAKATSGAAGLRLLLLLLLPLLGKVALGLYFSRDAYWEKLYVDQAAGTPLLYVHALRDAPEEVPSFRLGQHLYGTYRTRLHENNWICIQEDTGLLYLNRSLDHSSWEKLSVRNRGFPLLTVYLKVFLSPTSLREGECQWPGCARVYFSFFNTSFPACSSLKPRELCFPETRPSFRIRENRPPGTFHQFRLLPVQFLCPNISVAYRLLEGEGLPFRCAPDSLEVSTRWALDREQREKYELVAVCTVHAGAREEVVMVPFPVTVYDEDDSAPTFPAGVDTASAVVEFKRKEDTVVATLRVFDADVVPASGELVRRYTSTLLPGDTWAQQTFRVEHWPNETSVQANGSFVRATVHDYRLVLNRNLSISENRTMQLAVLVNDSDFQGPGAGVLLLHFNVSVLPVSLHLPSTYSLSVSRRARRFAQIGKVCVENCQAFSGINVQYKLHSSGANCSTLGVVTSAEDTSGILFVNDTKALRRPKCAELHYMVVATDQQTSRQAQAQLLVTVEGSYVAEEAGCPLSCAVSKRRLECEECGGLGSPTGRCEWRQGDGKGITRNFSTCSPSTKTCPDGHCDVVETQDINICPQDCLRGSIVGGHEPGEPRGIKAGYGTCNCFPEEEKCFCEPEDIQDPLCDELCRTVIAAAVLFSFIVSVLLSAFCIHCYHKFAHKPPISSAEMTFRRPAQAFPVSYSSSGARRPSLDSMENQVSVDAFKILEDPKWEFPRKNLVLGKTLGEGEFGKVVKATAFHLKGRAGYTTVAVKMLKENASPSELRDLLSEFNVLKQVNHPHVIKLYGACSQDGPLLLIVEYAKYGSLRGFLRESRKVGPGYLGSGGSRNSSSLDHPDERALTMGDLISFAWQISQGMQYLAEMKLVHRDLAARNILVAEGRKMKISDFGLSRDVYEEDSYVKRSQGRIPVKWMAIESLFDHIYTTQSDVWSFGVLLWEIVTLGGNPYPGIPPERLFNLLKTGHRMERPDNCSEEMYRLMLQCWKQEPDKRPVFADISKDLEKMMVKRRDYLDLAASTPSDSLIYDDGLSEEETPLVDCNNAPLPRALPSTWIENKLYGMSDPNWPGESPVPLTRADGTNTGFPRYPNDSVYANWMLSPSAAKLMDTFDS
# Sequence of UniProt Q9Y4K4 (whole entry, looked up): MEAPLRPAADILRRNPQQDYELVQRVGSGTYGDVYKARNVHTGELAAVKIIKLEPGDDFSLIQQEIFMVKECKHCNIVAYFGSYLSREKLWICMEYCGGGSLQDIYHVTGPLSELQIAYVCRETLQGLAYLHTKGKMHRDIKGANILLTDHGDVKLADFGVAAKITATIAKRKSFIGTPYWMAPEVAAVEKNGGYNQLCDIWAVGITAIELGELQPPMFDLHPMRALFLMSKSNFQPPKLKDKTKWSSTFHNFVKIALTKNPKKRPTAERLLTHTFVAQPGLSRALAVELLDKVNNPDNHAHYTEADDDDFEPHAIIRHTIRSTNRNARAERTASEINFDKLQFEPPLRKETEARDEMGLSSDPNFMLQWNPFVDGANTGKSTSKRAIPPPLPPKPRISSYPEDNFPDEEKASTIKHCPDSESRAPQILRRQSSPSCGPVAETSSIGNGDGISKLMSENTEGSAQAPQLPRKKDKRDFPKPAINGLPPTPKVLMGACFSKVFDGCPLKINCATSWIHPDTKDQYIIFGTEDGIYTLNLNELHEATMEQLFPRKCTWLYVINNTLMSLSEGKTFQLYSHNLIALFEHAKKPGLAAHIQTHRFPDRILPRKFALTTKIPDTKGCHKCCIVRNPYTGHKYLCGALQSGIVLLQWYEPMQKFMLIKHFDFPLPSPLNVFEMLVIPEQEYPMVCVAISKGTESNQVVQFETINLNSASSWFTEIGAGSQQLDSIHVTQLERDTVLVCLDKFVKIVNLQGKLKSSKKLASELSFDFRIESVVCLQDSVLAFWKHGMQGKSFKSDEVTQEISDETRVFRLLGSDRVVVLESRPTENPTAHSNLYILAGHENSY
# Sequence of UniProt Q96GD4 (whole entry, looked up): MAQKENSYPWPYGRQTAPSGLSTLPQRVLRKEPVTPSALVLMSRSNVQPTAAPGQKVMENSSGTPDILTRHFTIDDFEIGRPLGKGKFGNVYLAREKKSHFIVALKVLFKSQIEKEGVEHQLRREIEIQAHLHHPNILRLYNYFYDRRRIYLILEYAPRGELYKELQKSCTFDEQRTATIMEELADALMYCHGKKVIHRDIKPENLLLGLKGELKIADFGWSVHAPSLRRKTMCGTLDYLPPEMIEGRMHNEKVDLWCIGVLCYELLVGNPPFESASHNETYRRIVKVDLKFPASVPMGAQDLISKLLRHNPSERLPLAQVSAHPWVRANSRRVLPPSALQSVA
# Sequence of UniProt P52333 (whole entry, looked up): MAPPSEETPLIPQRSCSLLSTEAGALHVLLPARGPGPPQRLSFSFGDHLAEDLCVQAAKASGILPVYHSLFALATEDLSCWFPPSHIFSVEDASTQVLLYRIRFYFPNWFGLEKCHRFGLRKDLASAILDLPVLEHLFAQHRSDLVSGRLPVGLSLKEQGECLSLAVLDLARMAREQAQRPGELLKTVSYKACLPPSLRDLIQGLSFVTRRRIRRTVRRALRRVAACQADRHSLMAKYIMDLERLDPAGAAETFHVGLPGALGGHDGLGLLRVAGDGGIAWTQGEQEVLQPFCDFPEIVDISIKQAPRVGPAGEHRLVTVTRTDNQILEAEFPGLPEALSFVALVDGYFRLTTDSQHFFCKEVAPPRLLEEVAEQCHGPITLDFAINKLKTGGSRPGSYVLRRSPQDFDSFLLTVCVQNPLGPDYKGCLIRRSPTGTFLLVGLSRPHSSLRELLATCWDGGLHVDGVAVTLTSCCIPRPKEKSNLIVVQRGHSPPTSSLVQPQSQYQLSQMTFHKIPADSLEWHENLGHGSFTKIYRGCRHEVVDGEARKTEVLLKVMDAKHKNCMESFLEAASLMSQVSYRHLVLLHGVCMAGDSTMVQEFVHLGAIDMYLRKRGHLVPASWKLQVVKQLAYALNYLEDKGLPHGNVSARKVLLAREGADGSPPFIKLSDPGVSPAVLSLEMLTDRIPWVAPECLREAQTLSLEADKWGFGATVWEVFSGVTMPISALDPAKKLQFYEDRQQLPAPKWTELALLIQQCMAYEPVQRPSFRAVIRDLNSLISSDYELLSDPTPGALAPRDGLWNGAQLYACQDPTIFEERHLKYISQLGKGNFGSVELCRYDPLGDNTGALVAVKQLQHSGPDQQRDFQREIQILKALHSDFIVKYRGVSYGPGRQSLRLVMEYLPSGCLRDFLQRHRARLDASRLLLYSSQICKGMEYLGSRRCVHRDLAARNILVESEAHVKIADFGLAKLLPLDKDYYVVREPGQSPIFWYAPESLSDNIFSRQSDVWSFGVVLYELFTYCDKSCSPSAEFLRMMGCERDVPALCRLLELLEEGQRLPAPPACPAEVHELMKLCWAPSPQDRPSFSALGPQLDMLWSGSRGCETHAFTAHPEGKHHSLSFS
# Sequence of UniProt Q9Y6M4 (whole entry, looked up): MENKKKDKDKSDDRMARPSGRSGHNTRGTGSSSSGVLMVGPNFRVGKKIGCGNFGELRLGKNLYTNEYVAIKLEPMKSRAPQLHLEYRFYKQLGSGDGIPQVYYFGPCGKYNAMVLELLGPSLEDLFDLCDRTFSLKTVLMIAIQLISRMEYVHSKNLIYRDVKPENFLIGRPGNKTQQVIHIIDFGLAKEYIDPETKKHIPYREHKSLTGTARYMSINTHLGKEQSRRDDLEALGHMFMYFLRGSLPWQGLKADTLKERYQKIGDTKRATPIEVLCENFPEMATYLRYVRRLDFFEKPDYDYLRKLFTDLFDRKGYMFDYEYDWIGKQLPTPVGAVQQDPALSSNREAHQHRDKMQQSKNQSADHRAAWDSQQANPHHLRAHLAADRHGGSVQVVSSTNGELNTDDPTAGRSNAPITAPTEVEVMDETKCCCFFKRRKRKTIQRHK

# Set 1 — method: protein binding microarray; form: double-stranded DNA, one strand shown; sample: in vitro; tested at: not given; baseline: not given; direction: higher = stronger binding
# Target: Histone acetyltransferase KAT6A, winged helix 1, GST fusion (KAT6A, Homo sapiens, UniProt Q92794, residues 1-85)
# Setting: 8-mer, flanks averaged, mean of 2 arrays, mostly near background
# Construct (chain): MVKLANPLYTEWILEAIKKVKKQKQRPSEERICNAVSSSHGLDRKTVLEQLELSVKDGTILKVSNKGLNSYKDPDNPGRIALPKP
Sequence,E-score
GTACACCA,-0.151
GATGGGCA,-0.17
GTGCTAAA,-0.17
CAGGGTCA,-0.0962
AAGAGAGC,0.0415
GACCCGCC,0.386
AGGCTGGG,-0.348
GAATTAGA,-0.259

# Set 2 — observed: enzyme activity; action: inhibitor; tested at: 0.5 µM; baseline: control
# SMILES: CS(=O)(=O)CCNCc1ccc(-c2ccc3ncnc(Nc4ccc(OCc5cccc(F)c5)c(Cl)c4)c3c2)o1
target,remaining activity
"ULK1 (Homo sapiens, UniProt O75385)",95.4%
"RAF1 (Homo sapiens, UniProt P04049)",85.9%
"INSRR (Homo sapiens, UniProt P14616)",104%
"MAP4K5 (Homo sapiens, UniProt Q9Y4K4)",109%

# Set 3 — observed: cell-free assay; method: competition with immobilised ligand; tested at: 0.1 µM
# SMILES: Cn1cc(Cl)c2c(Oc3c(F)cc(Nc4cc(Cl)nc(N)n4)cc3F)ccnc21
target,remaining binding [%]
"CLK3 (Homo sapiens, UniProt P49761)",91
"Tyrosine-protein kinase JAK3, JH1 (JAK3, Homo sapiens, UniProt P52333)",94
"PIK3CA (Homo sapiens, UniProt P42336, E542K)",89
"CSNK1G3 (Homo sapiens, UniProt Q9Y6M4)",100
"EIF2AK1 (Homo sapiens, UniProt Q9BQI3)",100
"IRAK1 (Homo sapiens, UniProt P51617)",95
"IKBKB (Homo sapiens, UniProt O14920)",87
"STK32B (Homo sapiens, UniProt Q9NY57)",99
"Aurora kinase B (AURKB, Homo sapiens, UniProt Q96GD4)",78
"HASPIN (Homo sapiens, UniProt Q8TF76)",74
"PIK3CA (Homo sapiens, UniProt P42336, E545K)",78
"BRSK1 (Homo sapiens, UniProt Q8TDC3)",100
"Ribosomal protein S6 kinase alpha-4, C-terminal kinase domain (RPS6KA4, Homo sapiens, UniProt O75676)",100
"SIK2 (Homo sapiens, UniProt Q9H0K1)",100
"STK35 (Homo sapiens, UniProt Q8TDR2)",99
"RET (Homo sapiens, UniProt P07949, V804M)",95

# Set 4 — target: CCND1, cyclin fold, Cln2 fusion (human); method: yeast growth competition, sequencing; sample: yeast; setting: strong parent motif; baseline: not given; direction: higher = stronger binding
# Starting sequence: SCAPER docking peptide (human); SNARRSLNFGGST; partner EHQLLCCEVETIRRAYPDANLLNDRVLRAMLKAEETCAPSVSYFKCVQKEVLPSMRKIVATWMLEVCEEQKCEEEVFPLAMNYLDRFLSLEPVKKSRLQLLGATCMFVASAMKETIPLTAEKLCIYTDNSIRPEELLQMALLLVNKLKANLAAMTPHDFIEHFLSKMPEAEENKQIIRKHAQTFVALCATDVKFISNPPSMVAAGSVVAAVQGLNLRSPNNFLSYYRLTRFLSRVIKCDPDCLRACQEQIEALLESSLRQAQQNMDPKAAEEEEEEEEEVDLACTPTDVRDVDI
Variant,normalised enrichment score
N8W,0.444
A3H,0.0882
G10M,0.708
N8V,0.365
F9W,1.01
N8T,1.18
R5P,0.786
A3C,0.294

# Single results of other studies
Substance,target,test,test system,conditions,how to read,endpoint,result
"PhoQ, residues 284 288 289 292 302 303 SSCCRF","PhoP, residues 12 14 15 18 19 YHFSH (Escherichia coli, UniProt P23836)","Sort-seq, refers to: YFP reporter",E. coli,"PhoQ-PhoP variant library, together with: 10 µM Mg2+","baseline: high Mg2+ state, higher = stronger signaling",fold induction,4.35

# Repeated from above (set 3):
target,remaining binding [%]
"PIK3CA (Homo sapiens, UniProt P42336, E545K)",78
"BRSK1 (Homo sapiens, UniProt Q8TDC3)",100
"Ribosomal protein S6 kinase alpha-4, C-terminal kinase domain (RPS6KA4, Homo sapiens, UniProt O75676)",100
